Published values collected from several papers.
Each line is one published result; not all experiments were run side by side. ± gives the spread as reported.
Organism: Plasmodium falciparum

COc1cncc(-c2cc(F)cc(CNC(=O)c3cc(N4CC[C@@](C#N)(C5CC5)C4=O)cc(C)n3)c2)c1
IC50 (parasite growth; cPRS conditional knockdown line; 72 h, with: 3 nM anhydrotetracycline): 0.017 µM

CCc1nc(N)nc(N)c1-c1ccc(Cl)cc1
lag phase (3D7; 10 × EC50, 120 h): 24 h

Cc1cc(N2CC[C@@](C#N)(C3CC3)C2=O)cc(NC(=O)Cc2ccccc2)n1
IC50 (parasite growth; conditional knockdown control line; 72 h, with: 3 nM anhydrotetracycline): 0.048 µM

CCNCC#CCNc1ccnc2cc(Cl)ccc12
IC50 (parasite growth, LDH): 0.078 µM

COc1cccc2c(-c3ccc(O)c4c3CC(C)(C)N=C4)ccc(OC(C)C)c12
IC50 (asexual parasite growth, SYBR Green I; clinical isolate SB_04, Malawi): 0.4926 ± 0.0038 µM

CC(C)(C)NC(=O)CC(NC(=O)CCc1ccccc1)C(=O)NCCNC(=O)c1cccc(-c2ccccc2)c1 (stereo not shown)
EC50 (parasite growth, SYBR Green; 3D7; 72 h, blood stage): 0.0046 µM

COc1cccc2c(-c3ccc(O)c4c3CCNC4)ccc(O)c12
IC50 (asexual parasite proliferation, SYBR Green I fluorescence; clinical isolate SB_05, Mozambique): 0.381 ± 0.0057 µM

Cc1cc(C(=O)N[C@@H](CC(=O)NC(C)(C)C)C(=O)NCCNC(=O)c2cccc(-c3ccn[nH]3)c2)no1
EC50 (parasite growth; NF54; 24 h, gametocyte): 0.692 µM

COc1cccc2c(-c3ccc(O)c4c3C[C@@H](C)N[C@@H]4C)c(C)cc(O)c12
IC50 (asexual parasite growth, SYBR Green I; clinical isolate SB_04, Malawi): 0.0121 ± 0.0011 µM

COCCN(C)CC(=O)NC(Cc1ccc(-c2ccccc2)cc1)B(O)O (stereo not shown)
IC50 ([3H]-hypoxanthine incorporation; NF54): 0.172 ± 0.087 µM

Cc1cc(C(=O)N[C@@H](CC(=O)NC(C)(C)C)C(=O)NCCNC(=O)c2cc(-c3ccccc3)ccn2)no1
EC50 (female gamete activation; NF54; 48 h): > 10 µM

CC1=N[C@H](C)Cc2c(-c3ccc4ccccc4c3)ccc(O)c21
IC50 (asexual parasite proliferation, SYBR Green I fluorescence; K1): 0.77 ± 0.31 µM

Cc1cc(N2CCC(CO)(C3CC3)C2=O)cc(C(=O)NCc2cc(F)cc(-c3cnn(C)c3)c2)n1 (stereo not shown)
IC50 (parasite growth; cPRS conditional knockdown line; 72 h, with: 3 nM anhydrotetracycline): 0.01 µM

For quick reference, copied from above:
CCc1nc(N)nc(N)c1-c1ccc(Cl)cc1
lag phase (3D7; 10 × EC50, 120 h): 24 h
